Measurements gathered from unrelated publications.
A part holds a random share of what one study measured.

Sample 1
Target: RING finger protein unkempt homolog, zinc fingers 1-6, GST-SBP tag (UNK, Homo sapiens, UniProt Q9C0B0, residues 30-357)
UniProt Q9C0B0, sequence (30-357, looked up): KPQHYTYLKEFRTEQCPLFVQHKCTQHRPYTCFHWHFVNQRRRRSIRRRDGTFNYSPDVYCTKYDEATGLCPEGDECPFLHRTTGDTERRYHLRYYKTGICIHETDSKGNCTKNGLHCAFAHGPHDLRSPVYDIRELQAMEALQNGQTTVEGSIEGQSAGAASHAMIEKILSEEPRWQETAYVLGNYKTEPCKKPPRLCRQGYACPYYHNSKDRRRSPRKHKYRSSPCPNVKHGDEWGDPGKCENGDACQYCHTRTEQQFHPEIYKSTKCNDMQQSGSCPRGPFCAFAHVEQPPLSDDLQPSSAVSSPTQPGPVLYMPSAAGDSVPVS
Method: RNA Bind-n-Seq
Form: RNA
Matrix: in vitro
Tested at: not given
Setting: RNA with constant flanks, human and mouse sites, ends assumed
Baseline: input RNA pool
Reading: higher = stronger binding
Quantity: bound/input enrichment
All sequences stand within: GGGAGUUCUACAGUCCGACGAUC … CAACAGAGGAUUGAGCAUCA
GGAUAUUUGAUUCCUACUGCUUUGGAAAGCAUUUUGGAGCAAUACCAAAAGGAAACUAACUAACCAAGUGUGAUAUGUUGCUCUGAAAAUCUUUGCGAAAUGAGGGCCUCUUGCUGAAUU: 0.126 ratio
GUACAUUUUGUGCAAUGGCUUUAUCUAAAAGAAUGACGCUUCGUGAAAGCACUUUGUGGCCUUUUUUGGGGGGGAGGGUGAGAGAGUAGGAGAGAAUACCAUGUUAAGAUUAAAAAAAAA: 0.838 ratio
UAUGCCACCUUCUGUUAUUUUCAUCGCUUUUUGAAGAGAAACAUGGAAGAGACUUUUUUUUAUUUAUUCUCACGGUGCAGAAAUGACAACACUGUGCUAUAUCUACUACCCAGGGUCCCG: 0.217 ratio
GGCCCGGCUGCGGCUGGAGGCCACGCGCCUCAGAGUUUGCUAUUGCGAAUACUGACCCCUAGCUUUGAAGGUAUUAGCGGAUUGUUACUGAAACAGCAUAUAGUUCCAAAUGCAGUCAGA: 0.186 ratio
UAUGCAGGUGCGUUGAGAGCUUCAGGAGAAAUGGCUUCAGCACAGUAUAUUACUGCAGCUCUUAGAGAUUUGUUUGAUUCCAUGGAUAAAACUUCUUCUAGUAUCCCACCUAUUAUUCUG: 1.31 ratio
CGAGUAGUUGGCAAAGAGCAGGGCCAGAAUUUAGCAAGACAGUGGUGUAACUGUGCCUUUUUAGAAUCUUCUGCAAAGUCAAAGAUCAAUGUUAAUGAGAUAUUUUAUGACCUGGUCAGA: 2.9 ratio
CAGAGAUGUUUCCCUGACUUCUCUACCAAAAAUGGCACUUUAACAAUAGGAAGUAAGAUGAUGUUUCAAGAUGGAAAUGGAGGGACAAGAAGUGUUGUAGAACUCGGGAUUGCUGCAAAU: 0.579 ratio
ACAGAAGUGGAUCGAGCAAGUCACUGGUCGAAGUUUUGGUGACAAAGACUUCCGGACAGGACUAGAAAAUGGGAUCCUCCUUUGCGAGUUGCUGAAUGCUAUAAAGCCAGGACUUGUUAA: 0.107 ratio
UGAAGUGUUGAGUGGCAGUGUUCCCUAUGGCCCAUCCCCAAAACCUGUGCACCAAAGCUUUAUUUAUGUCCCCAGUGUUGUCCCAAAGGCCACCAUGGACACCAGAGCACACCGACUGGC: 0.1 ratio
AAAAAAGAAAAAUCGAGUUUUCUUUUCAAAGGAGAUGGAUCCAAGCCUUUAGAGCCAGCCAAGCAAGCCAUGUCUCCUUCUGUGGCCGAAUGUGCCAGAGCUGUGUUUGCUUCCUUCCUC: 0.187 ratio
GGUCUAAUAUAAAUGGGCCUGGGACACCCAGGCCACUUAAUCGACCAAAGGUUUCUUUGUCAGCCCCCAUGACAACAAAUGGGUUGCCUGAGAGCACAGACAGCAAAGAGGCAAAUUUGC: 0.144 ratio

Sample 2
Target: Prothrombin, mature alpha-thrombin (F2, Homo sapiens, UniProt P00734)
Method: aptamer microarray, sandwich
Form: DNA with 2'F-ANA
Matrix: in vitro
Tested at: 200 nM
Setting: whole 15-mer aptamer, many near background
Added: Cy3 exosite-II aptamer, 400 nM
Reading: higher = stronger binding
Quantity: mean fluorescence intensity
Oligonucleotide: GGTTGGTGTGGTTGG
2'F-ANA at 1 4 8 11 12 13 15: 198 a.u.
2'F-ANA at 4 5 8 11 12 13 15: 79.3 a.u.
2'F-ANA at 1 2 3 4 6 8 9 13 14: 54.6 a.u.
2'F-ANA at 2 5 8 9 11 12 13 14: 46.5 a.u.
2'F-ANA at 2 5 6 11: 143 a.u.
2'F-ANA at 1 2 3 7 12 13 14 15: 158 a.u.
2'F-ANA at 1 2 3 5 6 9 12 15: 124 a.u.
2'F-ANA at 6 7 10 11 12 13 14: 100 a.u.
2'F-ANA at 1 8 12 13 15: 362 a.u.
2'F-ANA at 1 2 3 6 8 9 10 15: 66 a.u.
2'F-ANA at 3 4 7 8 9 11 12 13 14 15: 366 a.u.
2'F-ANA at 1 2 5 7 9 10 11 13 14 15: 64.3 a.u.
2'F-ANA at 1 4 5 8 9 11 13 15: 194 a.u.

Sample 3
Target: PABPC1L2, full length, GST fusion (mouse, UniProt A0ABA7IW68)
Method: RNAcompete
Form: RNA
Matrix: in vitro
Tested at: 20 nM
Setting: 7-mer, probes averaged, single round
Baseline: mean of 7-mers
Reading: higher = stronger binding
Quantity: 7-mer Z-score
Target sequence (chain): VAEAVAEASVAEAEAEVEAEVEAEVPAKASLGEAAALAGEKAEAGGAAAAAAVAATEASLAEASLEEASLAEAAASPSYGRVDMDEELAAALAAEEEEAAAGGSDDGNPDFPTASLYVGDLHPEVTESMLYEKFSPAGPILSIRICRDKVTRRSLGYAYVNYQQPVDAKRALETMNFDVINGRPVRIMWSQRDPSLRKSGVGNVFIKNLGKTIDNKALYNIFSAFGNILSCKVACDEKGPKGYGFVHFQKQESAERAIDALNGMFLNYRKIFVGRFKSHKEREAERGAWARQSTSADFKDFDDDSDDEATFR
GAUUGCA: -0.175
CUUAUUC: -0.307
GUCGUCC: -0.425
GUUUACG: -0.367
GGCGUGG: 0.126
AAUACAA: 1.14
CAGUAAG: -0.0844
GUAACAG: 0.126
CACUGAU: -0.269
CGUGUAG: -0.17
UAUUCAU: -0.24
GUCGUAG: -0.36
GUAAAUG: 0.133
GGUGUUU: -0.391
UUAAUUU: -0.242
UAGCUAG: -0.0863
UGGGCCC: -0.191

Sample 4
Target: Transcription factor SOX-2, HMG box (SOX2, Homo sapiens, UniProt P48431, residues 19-118)
UniProt P48431, sequence (19-118, looked up): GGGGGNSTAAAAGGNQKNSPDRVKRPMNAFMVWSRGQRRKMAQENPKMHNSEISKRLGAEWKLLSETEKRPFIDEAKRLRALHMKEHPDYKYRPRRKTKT
Method: protein-binding microarray
Form: double-stranded DNA, one strand shown
Matrix: in vitro
Tested at: not given
Setting: k-mer, scored over probes, only values ≥0.25
Reading: higher = stronger binding
Quantity: E-score
AATTAGA: 0.319
ACAATGC: 0.429
ATATATG: 0.257
CATGAAA: 0.295
TAATTGA: 0.367
AACGGCC: 0.332
TTAATAA: 0.275
GACACAA: 0.301
ATTAAAT: 0.331
TATAATA: 0.39
TTATGAA: 0.3
GAATACA: 0.311
ATAAACA: 0.308
AACAATT: 0.469
AATTGCG: 0.253
CATTCAA: 0.345

Sample 5
Target: Histone acetyltransferase KAT6A, both winged helices, GST fusion (KAT6A, Homo sapiens, UniProt Q92794, residues 1-181)
Method: protein binding microarray
Form: double-stranded DNA, one strand shown
Matrix: in vitro
Tested at: not given
Setting: 8-mer, flanks averaged, mean of 2 arrays, mostly near background
Baseline: not given
Reading: higher = stronger binding
Quantity: E-score
Target sequence (chain): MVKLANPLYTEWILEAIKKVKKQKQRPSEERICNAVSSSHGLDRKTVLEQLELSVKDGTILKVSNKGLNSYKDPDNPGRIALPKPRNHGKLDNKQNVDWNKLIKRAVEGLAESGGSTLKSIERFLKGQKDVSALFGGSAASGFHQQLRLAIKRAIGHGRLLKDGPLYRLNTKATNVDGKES
AGCAGACG: 0.0183
ACTCGGCG: 0.249
CTCCACAG: -0.187
CCTATTTC: -0.128
AATCTTGA: -0.0969
GTATGATA: -0.0107
CCAAGCCG: 0.216
ATAAGACC: -0.0272
AACCATCA: -0.0477
CTAGATCC: -0.13
ACTGGCTG: -0.0274
ATGTAAGC: 0.029
GATGGGGC: -0.143
GCCCAGCA: -0.116
AGTAAGGA: -0.0861
ATTAATCC: -0.049
GCACTATA: 0.0848
ATAGCATC: -0.106

Sample 6
Target: Interferon regulatory factor 5, full length, phosphomimetic (IRF5, Homo sapiens, UniProt Q13568-2, residues 1-514, S451D/S453D/S456D/S462D)
Method: protein-binding microarray
Form: double-stranded DNA, one strand shown
Matrix: in vitro
Tested at: 940 nM top
Setting: 60-bp whole probe
Added: salmon DNA 0.4 mg/ml
Baseline: random background probes
Reading: higher = stronger binding
Quantity: fitted relative affinity
All sequences stand within: GCCTAGCAC … GTCTTGATTCGCTTGACGCTGCTG
GACGGACAGCTACTGCTGACGTGCTAG: -0.834 z-score
GACGGCCTGGACTTTCGGGACGTGCTA: 0.00243 z-score
GCACTTTGGGAGGCCGAGGCGTGCTAG: -0.754 z-score
TCATTTACCACATTCTCACTGTGCTAG: 1.4 z-score
GCCGATCTCAGTATCGAGACGTGCTAG: 2.76 z-score
CACGGTATCGGTATCGGGACGTGCTAG: 7.89 z-score
TCATTTTATGCTTTCTTACTGTGCTAG: 1.41 z-score
TTAGGACTGGGACTGGGTTGGTGCTAG: -0.203 z-score
GAAGGTATCGACTTTCGGGACGTGCTA: 3.31 z-score
GACGGCTTCGGTATCGGGACGTGCTAG: 1.07 z-score
GACGATCTCGGACTGGGGACGTGCTAG: 0.134 z-score
GACAAACTGGGGTTTCGAGACGTGCTA: 1.98 z-score
GAAGGTATCGGGTATCGGGACGTGCTA: 4.4 z-score

Repeated from above (sample 6):
GACAAACTGGGGTTTCGAGACGTGCTA: 1.98 z-score
GACGGACAGCTACTGCTGACGTGCTAG: -0.834 z-score
TCATTTTATGCTTTCTTACTGTGCTAG: 1.41 z-score
TCATTTACCACATTCTCACTGTGCTAG: 1.4 z-score
GAAGGTATCGGGTATCGGGACGTGCTA: 4.4 z-score
GACGGCTTCGGTATCGGGACGTGCTAG: 1.07 z-score
TTAGGACTGGGACTGGGTTGGTGCTAG: -0.203 z-score
